Assay results of several laboratories.
Each numbered part is a random draw from the data of one study; scales do not carry over between parts. Changes are numbered by the printed parent chain.

Block 1
Target: RING finger protein unkempt homolog, zinc fingers 1-6, SBP tag (UNK, Homo sapiens, UniProt Q9C0B0, residues 30-357)
UniProt Q9C0B0, sequence (30-357, looked up): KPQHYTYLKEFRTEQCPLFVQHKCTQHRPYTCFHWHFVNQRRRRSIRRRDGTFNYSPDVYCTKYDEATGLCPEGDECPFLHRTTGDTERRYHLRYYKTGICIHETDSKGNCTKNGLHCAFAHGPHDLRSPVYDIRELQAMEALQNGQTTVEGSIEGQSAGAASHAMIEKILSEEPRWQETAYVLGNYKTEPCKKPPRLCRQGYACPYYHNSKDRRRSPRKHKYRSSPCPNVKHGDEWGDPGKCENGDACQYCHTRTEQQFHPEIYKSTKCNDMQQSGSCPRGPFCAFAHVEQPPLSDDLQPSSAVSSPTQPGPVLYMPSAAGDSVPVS
Technique: RNA Bind-n-Seq
Form: RNA
Sample: in vitro
Concentration: 100 nM
Setting: RNA with constant flanks, ends assumed
Baseline: input RNA pool
Direction: higher = stronger binding
Oligonucleotide	bound/input enrichment [ratio]
GGGAGUUCUACAGUCCGACGAUCGCUCCCGUUCUUAACAACCGACACUCCUACAAGAUUCCGAAAAAAGUUUACAACAUAAUCCCGUUUACAGAAAAAUCUUGUGCCCGAAUACUUUUUAAAAGGUAUUUUGAAUACCAUUAACAACAGAGGAUUGAGCAUCA	0.459
GGGAGUUCUACAGUCCGACGAUCACAUGCCACUGUCACCAAAACAAACAACUACCACUUUCCAAAUUUCAUUCAGAACCAUUUCCGUGUUUUCCUAUUCCCUACCCCUCCCACUACUUUCAAUGAUGAAAUACCCUAAGUUAACAACAGAGGAUUGAGCAUCA	3.79
GGGAGUUCUACAGUCCGACGAUCUUCAGGCACAACUGACUGGUUCACAGCACUCCUUACACCGUUAUCUAUCAAAUUCAAGUGCCGUUAAUUUUCAGGAAACAACCAGGCAGUCAUCUUUAUCCUGCCGCCCAAUUGGAGAUUCAACAGAGGAUUGAGCAUCA	0.712

Block 2
Target: ABI1, truncated, D143A, DHFR fusion (Arabidopsis thaliana)
Technique: DHFR PCA, deep sequencing
Sample: yeast
Setting: methotrexate growth selection, single substitutions
Added: (+)-ABA 0.0091 µM
Baseline: wild-type fitted maximum
Direction: higher = stronger binding
Starting sequence: PYL1, truncated, DHFR fusion (Arabidopsis thaliana); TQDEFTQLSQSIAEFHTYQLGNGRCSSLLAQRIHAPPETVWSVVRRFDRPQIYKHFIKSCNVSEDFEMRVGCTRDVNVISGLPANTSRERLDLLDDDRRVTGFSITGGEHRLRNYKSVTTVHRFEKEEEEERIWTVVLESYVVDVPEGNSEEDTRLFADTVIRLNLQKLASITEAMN
Variant	relative binding score [%]
E174R	-0.809
R90V	8.65
F47Y	15.5
R99Q	18.8
A35W	-3.1
H55Q	27.4
Q7N	10.7
L94F	38.1
E147V	10.7
L94P	-8.14
K58N	3.97
E130V	24.2
D92A	-2.99
V142T	4.51
F56Y	-8.31
R163P	0.0336
T101H	0.881
S117K	-5.84
L156T	12.4

Block 3
Target: Ras GTPase-activating protein-binding protein 1, full length (G3BP1, Homo sapiens, UniProt Q13283)
UniProt Q13283, sequence (whole entry, looked up): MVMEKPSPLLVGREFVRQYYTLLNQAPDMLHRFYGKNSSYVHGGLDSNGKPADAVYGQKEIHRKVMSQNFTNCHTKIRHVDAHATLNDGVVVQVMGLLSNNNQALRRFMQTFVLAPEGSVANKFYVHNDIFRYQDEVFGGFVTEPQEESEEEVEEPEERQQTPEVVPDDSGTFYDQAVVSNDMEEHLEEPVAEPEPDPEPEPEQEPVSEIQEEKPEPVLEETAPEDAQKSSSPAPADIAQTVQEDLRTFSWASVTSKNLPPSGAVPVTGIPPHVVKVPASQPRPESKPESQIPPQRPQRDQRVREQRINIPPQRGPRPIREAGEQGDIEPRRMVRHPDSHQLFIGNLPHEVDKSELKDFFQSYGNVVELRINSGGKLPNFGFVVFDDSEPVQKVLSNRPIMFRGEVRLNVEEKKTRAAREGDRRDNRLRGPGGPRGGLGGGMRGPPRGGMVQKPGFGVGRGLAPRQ
Technique: RNA Bind-n-Seq
Form: RNA
Sample: in vitro
Concentration: 200 nM
Setting: whole 134-nt RNA, ends assumed
Added: 150 mM LiCl
Baseline: input library
Direction: higher = stronger binding
All molecules: 7-deaza-guanosine replaces G
Oligonucleotide	log2 enrichment
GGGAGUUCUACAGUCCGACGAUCUUACUUUAGAGGAGGAUCUGAUGGAUAUGGCAGUGGACGUGGAUUUGGGGAUGGCUAUAAUGGGUAUGGAGGAGGACCUGGAGGUGGCAAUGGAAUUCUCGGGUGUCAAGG	0.0986
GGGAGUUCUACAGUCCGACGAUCUCCUGUGCUACACAUCGUAUGUACCGAAUCGGCCCCCCGGGCCCCCCGGGGCCCCCCGGGAAAGUAUUAUGUUACGCCGUUCGGAUCUGCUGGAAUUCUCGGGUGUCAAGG	-1.22
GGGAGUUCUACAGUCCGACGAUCCCUGUGCUACACAUCGUAUGUACCGAAUCGGGGAAAGGGGAAAAAAAGGGGUUUUUGGGGAAAGUAUUAUGUUACGCCGUUCGGAUCUGCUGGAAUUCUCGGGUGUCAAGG	0.694
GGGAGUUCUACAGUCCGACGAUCCAAGUCCUGUGCUACACAUCGUAUGUACCGAAUCGGGGAAGGGGAAGGGAAGGGGAAAGUAUUAUGUUACGCCGUUCGGAUCUGCACUUCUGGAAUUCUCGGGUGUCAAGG	-0.0252
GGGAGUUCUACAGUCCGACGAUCCACAGACAAUACGCACCCACACAGACACAGAGGGAAGGGGUUGGGAUGGGGACAGGGUGCACAGCAGGGCGGGGUAGGACCCCAGCCCCUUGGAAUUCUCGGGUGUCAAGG	0.507
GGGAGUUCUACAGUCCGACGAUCAAGUCCUGUGCUACACAUCGUAUGUACCGAAUCGGUUUGGUUUUUUUGGUUUUUGGAAAGUAUUAUGUUACGCCGUUCGGAUCUGCACUUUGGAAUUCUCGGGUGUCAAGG	-0.861
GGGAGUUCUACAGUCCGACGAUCAAUGCCCACAAGGUCCCUCCCCCAUGGCUGAUUGCCAUGCAGCGAUAUGGACCACCCCCAUCGUAUCCCAACCUGAAAAUCCCUGGGCUGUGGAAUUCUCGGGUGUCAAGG	0.651
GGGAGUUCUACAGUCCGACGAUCUCAAGUCCUGUGCUACACAUCGUAUGUACCGAAUCGGGGAAGGGAAGGGAAGGGGAAAGUAUUAUGUUACGCCGUUCGGAUCUGCACUUCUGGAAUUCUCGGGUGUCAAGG	-0.0634
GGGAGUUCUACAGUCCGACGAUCUGUGCUACACAUCGUAUGUACCGAAUCGGGGAAAAAAAGGGGAAAAAAAGGGGAAAAAAAGGGAAAGUAUUAUGUUACGCCGUUCGGAUCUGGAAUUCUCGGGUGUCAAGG	0.762
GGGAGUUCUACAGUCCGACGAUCUCAAGUCCUGUGCUACACAUCGUAUGUACCGAAUCGGAAAAAGGUUUUUGGUGGAAAGUAUUAUGUUACGCCGUUCGGAUCUGCACUUCCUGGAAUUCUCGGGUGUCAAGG	-0.452
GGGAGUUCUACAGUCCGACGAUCUGGGAGGUGGAUUUUGUUUAUUUUUUUAGCUCAUUUCCAGGGGUGGGAAUUUUUAUUUAAUAUGUGUCAUGAAUAAAGUUGUUUUUGAAAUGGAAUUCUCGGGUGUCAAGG	-0.363

Block 4
Target: Interferon regulatory factor 7, full length, phosphomimetic (IRF7, Homo sapiens, UniProt Q92985, residues 1-503, S101K/S471D/S472D/S475D/S476D/S477D/S483D/S484D/S487D)
UniProt Q92985, sequence (whole entry, unmodified, looked up): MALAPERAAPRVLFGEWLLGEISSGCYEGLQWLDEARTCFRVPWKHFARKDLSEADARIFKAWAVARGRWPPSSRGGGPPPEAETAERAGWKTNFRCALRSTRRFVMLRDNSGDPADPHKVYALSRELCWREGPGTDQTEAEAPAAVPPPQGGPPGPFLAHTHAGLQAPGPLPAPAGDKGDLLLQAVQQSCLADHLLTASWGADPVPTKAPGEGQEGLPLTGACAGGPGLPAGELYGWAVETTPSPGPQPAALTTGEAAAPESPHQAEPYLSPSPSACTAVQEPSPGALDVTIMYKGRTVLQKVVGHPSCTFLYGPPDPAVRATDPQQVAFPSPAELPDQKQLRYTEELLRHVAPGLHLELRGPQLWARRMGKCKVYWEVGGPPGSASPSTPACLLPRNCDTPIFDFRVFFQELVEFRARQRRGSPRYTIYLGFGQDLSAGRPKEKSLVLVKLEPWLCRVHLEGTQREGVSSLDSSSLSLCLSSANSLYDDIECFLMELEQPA
Technique: protein-binding microarray
Form: double-stranded DNA, one strand shown
Sample: in vitro
Concentration: 250 nM
Setting: 60-bp whole probe
Added: salmon DNA 0.4 mg/ml
Baseline: random background probes
Direction: higher = stronger binding
Shared flanks, not repeated: GCCTAGCAC … GTCTTGATTCGCTTGACGCTGCTG
Oligonucleotide	log fluorescence
GGGGGAAATGGGAAACCCGGGGTGCTA	1 z-score
GACGGACTGGGGTTTCGGGGCGTGCTA	0.29 z-score
CTAGGACTGGGTTTCGGTTAGTGCTAG	6.92 z-score
TTAGCACTGAGTCTCGATTAGTGCTAG	0.706 z-score
ATTTTTTTGTAATCGAAATCTGTGCTA	0.792 z-score
GACGAACTGGGCTATCGAGACGTGCTA	-0.65 z-score
GACGGTATCGTCTATCGGGACGTGCTA	-0.397 z-score
TTAGATCTCAGGTTCGATTAGTGCTAG	1.59 z-score
GACGCTTTCGGGACTGGGGACGTGCTA	0.627 z-score
TTAGGTATCCTTCTTCTTTAGTGCTAG	0.566 z-score
GACAGACTGCTTCTCCTGACGTGCTAG	-0.358 z-score
TAAGGACTGGACACTGGGTTAGTGCTA	-0.4 z-score
GACGAACTGGGGCCTGGAGACGTGCTA	-0.165 z-score
TTAGATTTCCTTTCCCTTTAGTGCTAG	2.11 z-score
TTAGGTATCCTACTGCTGTAGTGCTAG	0.051 z-score
TCACTTCTCTAACCTCTCACTGTGCTA	1.12 z-score
GACGATATCGGGTCTGGAGACGTGCTA	-0.514 z-score
TCACCTCTTTCTTTGCTACTGTGCTAG	1.04 z-score
TTAGGACTGGACCTTCGGTTAGTGCTA	-0.458 z-score
AGGGTGTTCTTTTCTGTTGTCGTGCTA	-0.126 z-score
GACGGTTTCTTTCTCCTGACGTGCTAG	2.55 z-score
GGAGAAAAATCATGAAAATAGTGCTAG	-0.425 z-score
TCACTCATGGCTTTGTAGATGTGCTAG	-0.31 z-score
GACGGACTGCCTATCCTGACGTGCTAG	-0.569 z-score
TTAGGTTACCTTATCCTTTAGTGCTAG	0.42 z-score

Block 5
Target: Histone acetyltransferase KAT6A, both winged helices, GST fusion (KAT6A, Homo sapiens, UniProt Q92794, residues 1-181)
Technique: protein binding microarray
Form: double-stranded DNA, one strand shown
Sample: in vitro
Concentration: not given
Setting: 8-mer, flanks averaged, mean of 2 arrays, mostly near background
Baseline: not given
Direction: higher = stronger binding
Target sequence (chain): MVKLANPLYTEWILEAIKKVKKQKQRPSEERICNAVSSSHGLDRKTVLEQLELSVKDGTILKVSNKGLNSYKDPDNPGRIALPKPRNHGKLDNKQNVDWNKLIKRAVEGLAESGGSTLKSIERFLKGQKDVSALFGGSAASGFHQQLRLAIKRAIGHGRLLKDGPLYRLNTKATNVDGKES
Oligonucleotide	E-score
GTGATCAC	0.0257
AGTATCGC	0.0249
GCCGTCAC	0.284
AACTACGT	-0.0411
CAGAAGTC	-0.141
ACTATTAA	-0.134
TAGCACCA	-0.069
TCAATTCA	-0.0719
GTCACTGA	-0.0492
TGAGAAAA	-0.22
GGAGGCTA	0.00303
ACACCCAC	-0.206
AACCTTAC	-0.074
GATGTAAC	0.136
AAGTTTAT	-0.0107
ACGTCTAA	0.00152
GTAAGTAA	-0.151
ACGCTGGC	0.0401
ATCTAGTC	-0.26
GGAAAGAC	-0.025
AACCAGGC	-0.0655
AAGTGTTG	-0.113
CATCCGAC	0.135
ATAACAGG	-0.132
CAATGTTC	0.104

Repeated from above (block 2):
Variant	relative binding score [%]
Q7N	10.7
L94F	38.1
E147V	10.7
L94P	-8.14
K58N	3.97
E130V	24.2
D92A	-2.99
V142T	4.51
F56Y	-8.31
R163P	0.0336
T101H	0.881
S117K	-5.84
